Results of several laboratories.
Each numbered part is a random draw from the data of one study; scales do not carry over between parts.

Block 1
Target: Histamine H2 receptor (HRH2, Homo sapiens, UniProt P25021)
Sequence of UniProt P25021 (whole entry, looked up): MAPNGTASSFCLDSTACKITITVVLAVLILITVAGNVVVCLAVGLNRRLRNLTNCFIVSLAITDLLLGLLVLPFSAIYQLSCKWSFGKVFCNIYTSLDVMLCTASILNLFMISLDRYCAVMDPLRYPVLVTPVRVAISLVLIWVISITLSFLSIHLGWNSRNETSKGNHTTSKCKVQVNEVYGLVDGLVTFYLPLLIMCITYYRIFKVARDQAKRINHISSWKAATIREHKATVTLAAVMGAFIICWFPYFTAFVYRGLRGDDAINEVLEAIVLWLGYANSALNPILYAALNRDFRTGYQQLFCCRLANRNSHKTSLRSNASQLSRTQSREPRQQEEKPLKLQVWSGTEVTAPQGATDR
Effect on: binding
Method: radioligand binding
Tested at: 10 µM
SMILES	inhibition [%]
CNC(=O)c1ccc(Nc2ncc(C(F)(F)F)c(NCc3nccnc3N(C)S(C)(=O)=O)n2)cc1	30.2
CN1C(=O)[C@@H](N2CCc3cn(Cc4ccccc4)nc3C2=O)COc2ccccc21	11.9
CN(C)C(=O)Cn1cc(-c2nc([C@@](C)(c3ccc(-c4cnc(N)nc4)cc3)C3CC3)no2)cn1	-8.4
C[C@@H]1CN(c2cc(-c3nn(C)c4ccc(OC5(C)CC5)cc34)ncn2)C[C@H](C)O1	18.4
CN1CCN(C(=O)C(C)(C)c2ccc(C(=O)Nc3cn4cc(-c5ccncc5)ccc4n3)cc2)CC1	19.4
Nc1c(C(=O)NCc2ccc(C(=O)NCCCC3CCCCC3)cc2)cnn1-c1ccccc1	-12.2
COCc1nc2cnc3cc(-c4c(C)noc4C)c(OC[C@H]4CCNC4)cc3c2n1[C@H](C)c1ccccc1	12.3
Cc1cc(C)c(-n2ccn3nc(-c4cccnc4)cc23)cc1NC(=O)c1cc(C#N)cc(S(F)(F)(F)(F)F)c1	25.6
CNC(=O)Nc1ccc2c(c1)[C@]1(CC2)OC(=O)N(CC(=O)N(Cc2ccc(F)cc2)[C@@H](C)C(F)(F)F)C1=O	6.93
CS(=O)(=O)NCC[C@H](NC(=O)c1cncc2c1cnn2-c1ccc(F)cc1)c1ccnc(S(C)(=O)=O)c1	2.46
C[C@@]1(Cc2ccc(C#N)cc2)C(=O)N(c2cc(Cl)cc(Cl)c2)c2ncc(C(=O)NC3(c4nc(C5CCC5)no4)CC3)n21	11
Cc1c(NC(=O)c2cc(C(N)=O)nc3cc(F)ccc23)c(C(F)(F)F)nn1Cc1ccc(C(C)(C)C)cc1	32.4
CCCOc1ccc([C@H]2[C@H](C(=O)O)[C@@H](c3ccc4c(c3)OCO4)CN2CC(=O)Nc2c(CC)cccc2CC)cc1	5.77
CC(=O)Nc1c(F)cc(C(=O)N[C@H]2CC[C@H](O)CC2)cc1O[C@@H](C)c1ccccc1	-7.57
COCCc1ccc(-c2c(C)nc3c(N4CCOCC4)ccnn23)cn1	12.9
O=C1CCc2cc(Nc3cc(OC4CCOCC4)c([N+](=O)[O-])cc3Cl)ccc2N1	20.6
O=C(Nc1cccnn1)N1CC(CC=Cc2cncc(Oc3ccc(C(F)(F)F)cn3)n2)C1	-3.96
O=C(Nc1ccc(-n2nc(-c3cccnc3)cc2C(F)(F)F)cn1)c1ccc(-c2ccccc2)c(F)c1	-5.62
CC(=O)Nc1nc(CN2CCC[C@H](Cc3cc(C)nc(C)c3)C2)cs1	-13.2

Block 2
Target: PABPC1L2, full length, GST fusion (mouse, UniProt A0ABA7IW68)
Method: RNAcompete
Molecule type: RNA
Matrix: in vitro
Tested at: 20 nM
Setting: 7-mer, probes averaged, single round
Relative to: mean of 7-mers
Reading: higher = stronger binding
Construct (chain): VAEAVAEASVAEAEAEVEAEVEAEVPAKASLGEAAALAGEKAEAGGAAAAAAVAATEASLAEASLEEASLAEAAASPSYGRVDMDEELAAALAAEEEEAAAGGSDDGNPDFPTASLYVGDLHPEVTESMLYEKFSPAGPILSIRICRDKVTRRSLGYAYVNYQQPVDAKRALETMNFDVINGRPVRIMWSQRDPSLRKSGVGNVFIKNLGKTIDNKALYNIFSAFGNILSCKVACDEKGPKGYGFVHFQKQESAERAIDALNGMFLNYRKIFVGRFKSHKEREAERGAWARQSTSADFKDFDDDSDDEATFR
Sequence	7-mer Z-score
UGUAAAG	0.465
GUAAAGG	0.267
AAAAGCU	3.15
AUCUUAG	-0.231
CAUCACG	-0.269
AACCCCG	-0.271
GCACCUA	-0.191
GUAGAAU	-0.0156

Block 3
Target: Serine/threonine-protein kinase PAK 6 (PAK6, Homo sapiens, UniProt Q9NQU5)
Sequence of UniProt Q9NQU5 (whole entry, looked up): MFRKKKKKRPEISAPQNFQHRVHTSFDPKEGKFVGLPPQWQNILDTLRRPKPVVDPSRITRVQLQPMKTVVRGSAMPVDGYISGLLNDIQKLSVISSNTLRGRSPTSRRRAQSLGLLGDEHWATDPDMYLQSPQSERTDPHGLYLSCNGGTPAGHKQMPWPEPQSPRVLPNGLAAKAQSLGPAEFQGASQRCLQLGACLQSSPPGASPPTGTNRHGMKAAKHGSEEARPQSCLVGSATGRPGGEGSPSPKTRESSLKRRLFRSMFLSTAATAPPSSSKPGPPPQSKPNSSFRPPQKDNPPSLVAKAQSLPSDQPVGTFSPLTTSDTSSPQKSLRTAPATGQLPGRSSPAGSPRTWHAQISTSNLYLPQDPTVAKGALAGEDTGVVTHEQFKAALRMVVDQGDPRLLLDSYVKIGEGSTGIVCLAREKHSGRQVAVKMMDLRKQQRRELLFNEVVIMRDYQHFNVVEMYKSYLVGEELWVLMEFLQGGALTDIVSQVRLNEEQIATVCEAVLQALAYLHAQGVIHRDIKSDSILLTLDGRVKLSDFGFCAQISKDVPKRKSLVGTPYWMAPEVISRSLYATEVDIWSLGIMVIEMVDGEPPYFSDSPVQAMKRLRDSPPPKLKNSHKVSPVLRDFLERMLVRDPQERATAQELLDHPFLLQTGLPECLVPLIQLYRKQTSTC
Effect on: enzyme activity
Action: inhibitor
Tested at: 0.5 µM
Relative to: control
Structure (SMILES)	remaining activity [%]
Cc1nc(-c2ccccc2)c(-c2ccncc2)o1	103
O=S(=O)(c1cccc2cnccc12)N1CCCNCC1	87
CNC(=O)c1cc(Oc2ccc(NC(=O)Nc3ccc(Cl)c(C(F)(F)F)c3)cc2)ccn1	104
OCC(O)CCON=C1C(c2c(O)[nH]c3ccccc23)=Nc2ccccc21 (centres unmarked)	93.5
NCCNc1ncc(C(N)=O)c(Nc2cccc(C(F)(F)F)c2)n1	94
Cn1c2ccccc2c2c3c(c4c5ccccc5n(CCC#N)c4c21)CNC3=O	20.4
Cc1cccc(-c2[nH]c(C(C)(C)C)nc2-c2ccc3c(c2)OCO3)n1	103
Cn1sc(=O)n(Cc2ccccc2)c1=O	93.4
Nc1[nH]nc2nc3ccccc3nc12	96.3
O=C1NC(=O)C(c2cn(CCCn3ccnc3)c3ccccc23)=C1Nc1ccccc1	105
CN(C)c1ccc(C=C2C(=O)Nc3ccccc32)cc1	96.9
COc1ccc(CNC(=O)Nc2ncc([N+](=O)[O-])s2)cc1	106
CCOC(=O)c1c(C)[nH]c(/C=C2\C(=O)Nc3ccccc32)c1C	81.4

Further values, each from its own experiment
Method: cross-linking MS
Substance	partner	system	conditions	measurement	result
ERH (Homo sapiens, UniProt P84090)	BCLAF1 (Homo sapiens, UniProt Q9NYF8)	–	hits only	interaction screen	cross-linked
MAST3 (Homo sapiens, UniProt O60307)	USP24 (Homo sapiens, UniProt Q9UPU5)	cell fractions	together with: DMTMM	cross-linked residues	K1053 to E1864
CCT3 (Homo sapiens, UniProt P49368)	PDCL3 (Homo sapiens, UniProt Q9H2J4)	–	hits only	interaction screen	cross-linked
RFC1 (Homo sapiens, UniProt P35251)	RFC3 (Homo sapiens, UniProt P40938)	–	hits only	interaction screen	cross-linked
